Results pooled from the literature.
Protocols differ between the studies behind these lines.
Route: oral

`O=C(COc1ccc(Cl)cc1)NC12CC(c3nnc([C@H]4C[C@@H](OC(F)(F)F)C4)o3)(C1)C2` gave a Cmax of 4450 nM (healthy human volunteers fasted, plasma; 400 mg single dose, arithmetic mean).
The Cmax of `Cl.[2H]C([2H])([2H])CC(=O)c1cnc(NC(=O)C2CC2)cc1Nc1cccc(-c2ncn(C([2H])([2H])[2H])n2)c1OC` is reported as 437 ng/mL (geometric mean; human; 40 mg twice daily, day 14, fasted, tablet, multiple dose).
With `CNC(=O)c1ccc(-c2cnc3ncc(Cc4ccc5ncccc5c4)n3n2)cc1F` the Cmax was 2120 ng/mL (human moderate hepatic impairment NCI; 200 mg single dose, mean).
With `COc1ncc(-c2nc3c(n2C(C)C)[C@H](c2ccc(Cl)cc2)N(c2cc(Cl)cn(C)c2=O)C3=O)c(OC)n1` the Cmax was 100 ng/mL (LC-MS/MS; human, plasma; 25 mg, cycle 1 day 1, high-dose arm).
With `CCOc1c([C@H](C)n2nc(C)c3c(N)ncnc32)cc(Cl)c(F)c1[C@@H]1CNC(=O)C1` the Cmax was 1600 nM (human, indolent lymphoma, plasma; 20 mg, day 15).
For `COc1cc(N2CCC(N3CCN(C)CC3)CC2)ccc1Nc1ncnc(Nc2ccccc2S(=O)(=O)C(C)C)n1`, the Cmax was 643 ng/mL (human, plasma; 125 mg, day 28).
`C=CC(=O)N(C)CCOc1c(N)ncnc1-c1cc(F)cc(NC(=O)c2ccc(C3CC3)cc2F)c1C` gave a Cmax of 138 ng/mL (human; 60 mg single dose).
`C=CCn1c(=O)c2cnc(Nc3ccc(N4CCN(C)CC4)cc3)nc2n1-c1cccc(C(C)(C)O)n1` has a Cmax of 1010 nM (human; 250 mg once daily, cycle 1 day 17, together with: durvalumab 1500 mg IV; geometric mean).
For `C[C@@H]1CCO[C@H]2Cn3cc(C(=O)NCc4ccc(F)cc4F)c(=O)c(O)c3C(=O)N12`, the Cmax was 2370 ng/mL (human paediatric patients, weight 6 to under sample A kg, plasma; 4.8 mg granules, steady state, geometric mean, population PK post-hoc, N 1).

Some of these lines once more:
`C=CCn1c(=O)c2cnc(Nc3ccc(N4CCN(C)CC4)cc3)nc2n1-c1cccc(C(C)(C)O)n1` has a Cmax of 1010 nM (human; 250 mg once daily, cycle 1 day 17, together with: durvalumab 1500 mg IV; geometric mean).
